Published values of several laboratories.
Protocols differ between the studies behind these lines.

| SMILES | test | test system | setting | scale | endpoint | result |
| --- | --- | --- | --- | --- | --- | --- |
| CC[C@H](C)[C@@H]1NC(=O)[C@@H]2CSSC[C@H](NC(=O)[C@H](CCCNC(=N)N)NC(=O)[C@@H]3CSSC[C@H](NC1=O)C(=O)N[C@@H]([C@@H](C)O)C(=O)N[C@@H](CCCNC(=N)N)C(=O)NCC(=O)N[C@@H](Cc1ccccc1)C(=O)N3)C(=O)N[C@@H](CC(C)C)C(=O)N[C@H]1CSSC[C@H](NC(=O)[C@H](C(C)C)NC(=O)CNC(=O)[C@H](CCCNC(=N)N)NC(=O)[C@H](CCCNC(=N)N)NC1=O)C(=O)N[C@@H](CCCNC(=N)N)C(=O)N2 | – | Sprague-Dawley rats, male, lung | 10 mg/kg | direction not given | foreign material score | 1 to 2 |
| CCC[C@@](N)(CO)CCc1ccc(OCCCCCC(C)C)cc1 | – | dog, male hounds, plasma | oral capsule, 2.5 mg/kg, geometric mean | – | AUC(0-72 h) | 3.14 µM·h |
| CN1CC[C@@H](c2c(O)cc(O)c3c(=O)cc(-c4ccc(C(F)(F)F)cc4Cl)oc23)[C@@H]1CO | measured: Syncope | relapsed B-cell malignancies or AML | oral, 50 mg, grade 3-4, continuous dosing | – | patients with adverse event | 0% |
| COc1ccc([C@@H](O)c2cc(-c3ncnc4cc(N5CCOCC5)ccc34)c(F)cc2Cl)nn1 | – | patients, advanced solid tumours | oral, 300 mg twice daily, treatment-emergent, added: avelumab | – | hypotension incidence | 2% |
| O=C(Nc1ccccc1)C1CCN(C(=O)Oc2cccnc2)CC1 | – | healthy women | oral, 100 mg, 9 days | – | adverse event Nasopharyngitis | 0% |
| Cc1cc(C)c(CNC(=O)c2cc(Cl)c3c(c2C)O[C@@](C)([C@H]2CC[C@H](N(C)C)CC2)O3)c(=O)[nH]1 | – | relapsed/refractory NHL patients | dose not given, trial, safety set, treatment-related TEAE grade 5 | – | incidence of tumour-associated fever | 0% |
| C=CC(=O)Nc1cc(Nc2nccc(Nc3cc(Cl)c(F)cc3C(C)(C)O)n2)c(OC)cc1N1CC[C@@H](N(C)C)C1 | treatment-emergent adverse events | human | oral, 100 mg, phase I clinical trial | – | incidence of weight decreased | 33.3% |
| COc1cc2c(Oc3ccc4[nH]c(C)cc4c3F)ccnc2cc1OCC1(N)CC1 | – | paediatric recurrent refractory sarcoma | 12 mg | – | Neutropenia incidence | 45.5% |
| COc1ccnc(C(=O)N[C@H]2COC(=O)[C@H](Cc3ccccc3)[C@@H](OC(=O)C(C)C)[C@H](C)OC2=O)c1OCOC(=O)C(C)C | liver toxicity | dog | oral, 1 year | – | NOAEL | 84 mg/kg/day |
| Clc1cc2c(cc1Cl)Oc1cc(Cl)c(Cl)cc1O2 | RNA-Seq, measured: Cyp2c24 | female Sprague-Dawley rat, liver | dose not given | baseline: vehicle | mRNA level | 3.3 fold |
| CO[C@H]1C[C@@H]2CC[C@@H](C)[C@@](O)(O2)C(=O)C(=O)N2CCCC[C@H]2C(=O)O[C@H]([C@H](C)C[C@@H]2CC[C@@H](OC(=O)NCCOCCOCCOCCOCCOCCOCCOCCOCCC(=O)N3CCc4cc(Cn5nc(-c6ccc7oc(N)nc7c6)c6c(N)ncnc65)ccc4C3)[C@H](OC)C2)C[C@@H](O)[C@H](C)/C=C(\C)[C@@H](O)[C@@H](OC)C(=O)[C@H](C)C[C@H](C)/C=C/C=C/C=C/1C | phase 1 dose escalation, measured: diarrhoea | advanced solid tumour patients | intravenous, 16 mg weekly, any grade | – | TRAE incidence | 0% |
| C[C@]1(CO)Cc2ncn(-c3ccc(C#N)c(Cl)c3)c2C(=O)O1 | – | Japanese subjects | 20 mg single dose | – | drug-related Headache incidence | 0% |
| COc1ccc2nc3cc(Cl)ccc3c(Nc3cc(CN4CCCC4)c(O)c(CN4CCCC4)c3)c2n1 | – | mouse, blood | intraperitoneal, 57 mg/kg | – | eosinophil count | 0.98 10⁹/L |

Excerpt of the above:
| SMILES | test | test system | setting | scale | endpoint | result |
| --- | --- | --- | --- | --- | --- | --- |
| CC[C@H](C)[C@@H]1NC(=O)[C@@H]2CSSC[C@H](NC(=O)[C@H](CCCNC(=N)N)NC(=O)[C@@H]3CSSC[C@H](NC1=O)C(=O)N[C@@H]([C@@H](C)O)C(=O)N[C@@H](CCCNC(=N)N)C(=O)NCC(=O)N[C@@H](Cc1ccccc1)C(=O)N3)C(=O)N[C@@H](CC(C)C)C(=O)N[C@H]1CSSC[C@H](NC(=O)[C@H](C(C)C)NC(=O)CNC(=O)[C@H](CCCNC(=N)N)NC(=O)[C@H](CCCNC(=N)N)NC1=O)C(=O)N[C@@H](CCCNC(=N)N)C(=O)N2 | – | Sprague-Dawley rats, male, lung | 10 mg/kg | direction not given | foreign material score | 1 to 2 |
